Measured values from different studies.
Each numbered part is a random draw from the data of one study; scales do not carry over between parts. Changes are numbered by the printed parent chain.

Study 1
Target: Histone acetyltransferase KAT6A, winged helix 1, GST fusion (KAT6A, Homo sapiens, UniProt Q92794, residues 1-85)
Technique: protein binding microarray
Form: double-stranded DNA, one strand shown
Medium: in vitro
Tested at: not given
Setting: 8-mer, flanks averaged, mean of 2 arrays, mostly near background
Reference: not given
Reading: higher = stronger binding
Construct (chain): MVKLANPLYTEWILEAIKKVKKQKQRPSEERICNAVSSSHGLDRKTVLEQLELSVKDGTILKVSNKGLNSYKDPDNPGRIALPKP
For `CGCACGCA`, the E-score was 0.25.
`CTTAACGA` gave an E-score of -0.0939.
For `ACGTAAAT`, the E-score was -0.0525.
`AAGGATTG` gave an E-score of -0.203.
The E-score of `GACTCACC` is reported as 0.0394.
The E-score of `GTCGCATA` is reported as 0.193.
For `CGCGAAAG`, the E-score was 0.236.
For `ACGTGTAC`, the E-score was -0.113.
`GGATCAAA` has an E-score of -0.175.
`ACACGAGC` gave an E-score of -0.141.
With `ACTTGATA` the E-score was -0.077.
`CCTTAGCC` has an E-score of 0.054.
For `CGATACAA`, the E-score was -0.0852.
`AAGATGGG` gave an E-score of -0.0964.
`AGTTTGAT` gave an E-score of -0.166.
`CCCGGGGC` gave an E-score of 0.292.
`CACAATCA` has an E-score of -0.308.
With `TAAGAAGA` the E-score was -0.0112.
With `ACATATAG` the E-score was -0.0414.
For `CCCAATAG`, the E-score was -0.206.
`AATAGGCA` gave an E-score of -0.0626.
The E-score of `AAGTTAGG` is reported as -0.129.
With `TAAGATTA` the E-score was -0.0501.
For `CATCTCAG`, the E-score was -0.0893.
`AGATCCGA` gave an E-score of 0.0372.

Study 2
Molecule: PhoQ, residues 284 288 289 292 302 303 SSTLSG
Technique: Sort-seq
Item: YFP reporter
Medium: E. coli
Setting: PhoQ-PhoP variant library
Added: 10 µM Mg2+
Reference: high Mg2+ state
Reading: higher = stronger signaling
It gave 6.83 for fold induction (PhoP, residues 12 14 15 18 19 TQCLL (Escherichia coli, UniProt P23836)).
For PhoP, residues 12 14 15 18 19 ICWRQ (Escherichia coli, UniProt P23836): fold induction read 11.2.
PhoP, residues 12 14 15 18 19 VHTVL (Escherichia coli, UniProt P23836) — fold induction: 2.44.

Study 3
Target: Ras GTPase-activating protein-binding protein 1, RRM domain (G3BP1, Homo sapiens, UniProt Q13283)
Sequence of UniProt Q13283 (whole entry, looked up): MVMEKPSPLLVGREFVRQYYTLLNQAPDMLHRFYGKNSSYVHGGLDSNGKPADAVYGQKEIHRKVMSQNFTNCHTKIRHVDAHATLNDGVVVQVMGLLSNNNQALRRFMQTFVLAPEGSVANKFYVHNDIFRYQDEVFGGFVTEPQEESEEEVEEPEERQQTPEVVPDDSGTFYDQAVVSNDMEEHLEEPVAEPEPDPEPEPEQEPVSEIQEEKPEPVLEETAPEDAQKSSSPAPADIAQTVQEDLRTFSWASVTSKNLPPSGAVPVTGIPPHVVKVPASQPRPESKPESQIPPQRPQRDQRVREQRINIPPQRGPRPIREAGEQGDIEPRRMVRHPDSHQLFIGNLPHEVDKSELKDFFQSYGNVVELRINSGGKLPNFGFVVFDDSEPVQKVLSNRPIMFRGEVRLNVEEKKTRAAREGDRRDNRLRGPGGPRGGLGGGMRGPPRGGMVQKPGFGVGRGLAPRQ
Technique: RNA Bind-n-Seq
Form: RNA
Medium: in vitro
Tested at: 1 µM
Setting: whole 134-nt RNA, ends assumed
Added: 150 mM KCl
Reference: input library
Reading: higher = stronger binding
`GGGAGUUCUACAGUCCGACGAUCGUCCUGUGCUACACAUCGUAUGUACCGAAUCGGUUUUUUUGGAAAAAAAGGUUUUUGGAAAGUAUUAUGUUACGCCGUUCGGAUCUGCACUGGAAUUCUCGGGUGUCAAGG` gave a log2 enrichment of -0.508.
`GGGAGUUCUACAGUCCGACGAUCUGGAAGGUGGAUUUUGUUUAUUUUUUUAGCUCAUUUCCAGGGGUGGGAAUUUUUUUUUAAUAUGUGUCAUGAAUAAAGUUGUUUUUGAAAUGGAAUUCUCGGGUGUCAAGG` gave a log2 enrichment of 1.72.
The log2 enrichment of `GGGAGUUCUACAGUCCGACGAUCUGGGAGGUGGAUUUUGUUUAUUCUUUUAGCUCAUUUCCAGGGGUGGGAAUUUUUUUUUAAUAUGUGUCAUGAAUAAAGUUGUUUUUGAAAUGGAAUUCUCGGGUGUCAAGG` is reported as 1.68.
`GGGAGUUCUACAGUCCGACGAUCAGUCCUGUGCUACACAUCGUAUGUACCGAAUCGGGGAAAAAGGGGUGGGGUUUGGGGAAAGUAUUAUGUUACGCCGUUCGGAUCUGCACUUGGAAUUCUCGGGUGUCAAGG` gave a log2 enrichment of 0.646.
`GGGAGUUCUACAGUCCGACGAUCGUCCUGUGCUACACAUCGUAUGUACCGAAUCGGGUUUUUGGGAAAAAAAGGGUUUGGGAAAGUAUUAUGUUACGCCGUUCGGAUCUGCACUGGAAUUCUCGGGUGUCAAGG` has a log2 enrichment of -0.0806.
For `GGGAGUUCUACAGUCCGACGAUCAGUCCUGUGCUACACAUCGUAUGUACCGAAUCGGGUUUGGGAAAAAGGGUUUUUGGGAAAGUAUUAUGUUACGCCGUUCGGAUCUGCACUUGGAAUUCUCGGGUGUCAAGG`, the log2 enrichment was 0.442.
`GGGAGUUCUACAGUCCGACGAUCGGACACAGCUUGGGCUAUGGCUUUGUGAACUACGUGACCGCGAAGGAUGCAGAGAGAGCGAUCAACACGCUGAACGGCUUGAGGCUCCAGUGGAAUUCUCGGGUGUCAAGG` gave a log2 enrichment of -0.544.
`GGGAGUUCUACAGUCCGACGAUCCCUCAAGUCCUGUGCUACACAUCGUAUGUACCGAAUCGGUUUGGUUUGGUGGAAAGUAUUAUGUUACGCCGUUCGGAUCUGCACUUCCAGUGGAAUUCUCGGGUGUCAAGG` gave a log2 enrichment of -0.313.
`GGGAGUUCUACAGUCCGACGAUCACCAUGCAGGUGGGCAUCUUUGGGAAGAGGGGCAAGGGGGGGAUAGGGAGGGGGGUAACACUUUGGGAACAGGUGGUCCCAGGUCGUUUCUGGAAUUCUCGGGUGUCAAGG` has a log2 enrichment of -0.625.
For `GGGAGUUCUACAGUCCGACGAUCUUGCUUCAAGAAGAUCCCUAAGCUGUAGAACAUUUUAACGUUGAUGCCACAACGCAGAUUGAUGCCUUGUAGAUGGAGCUUGCAGAUGGAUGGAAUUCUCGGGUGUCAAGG`, the log2 enrichment was -0.198.

Study 4
Target: CCNA2, cyclin fold, Cln2 fusion (human)
Technique: yeast growth competition, sequencing
Medium: yeast
Setting: strong parent motif
Reference: not given
Reading: higher = stronger binding
Starting sequence: INSM1 docking peptide (human); PKAIRKLHFEDEV; partner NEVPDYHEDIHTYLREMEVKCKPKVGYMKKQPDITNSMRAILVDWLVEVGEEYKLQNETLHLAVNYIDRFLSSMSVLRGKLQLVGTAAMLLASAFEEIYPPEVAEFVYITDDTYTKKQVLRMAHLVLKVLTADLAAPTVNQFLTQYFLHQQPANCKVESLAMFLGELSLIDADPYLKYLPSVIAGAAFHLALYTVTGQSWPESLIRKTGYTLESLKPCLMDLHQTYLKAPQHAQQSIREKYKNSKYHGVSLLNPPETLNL
`K2D` — result for “normalised enrichment score”: 2.73.
Under “normalised enrichment score”, `E10Y` is recorded as 4.69.
For `I4K`, “normalised enrichment score” read 6.91.
For `A3P`, “normalised enrichment score” read 4.08.
`E12R` — result for “normalised enrichment score”: 4.39.
Under “normalised enrichment score”, `A3Q` is recorded as 0.711.
For `L7F`, “normalised enrichment score” read 0.272.
`R5G` — result for “normalised enrichment score”: 0.524.
Under “normalised enrichment score”, `K6Y` is recorded as 2.03.
`I4T`: “normalised enrichment score” 4.3.
For `I4W`, “normalised enrichment score” read 5.96.
For `K2P`, “normalised enrichment score” read 3.74.
`E10M` — result for “normalised enrichment score”: 4.72.
`F9D`: “normalised enrichment score” -0.235.
Under “normalised enrichment score”, `R5A` is recorded as 1.06.
`R5P`: “normalised enrichment score” -0.419.

Study 5
Target: RNA binding protein fox-1 homolog 2, RRM domain, GST-SBP tag (RBFOX2, Homo sapiens, UniProt O43251-10, residues 100-194)
Technique: RNA Bind-n-Seq
Form: RNA
Medium: in vitro
Tested at: 365 nM
Setting: natural RNA segment, single round, ends assumed
Reference: no-protein control
Reading: higher = stronger binding
Target sequence (chain): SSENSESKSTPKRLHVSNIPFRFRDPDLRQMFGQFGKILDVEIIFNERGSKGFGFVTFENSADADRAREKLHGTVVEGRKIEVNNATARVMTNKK
For `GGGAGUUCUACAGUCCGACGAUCUCCUAAUAAGUAGAAUACACUACUGUCAACACCUGACCUUCGUUUUUGUCUUGUGUUGGGGUUAGAGAGAGCAGGAAGGGGGUUCUGACCCUCUUCCCUCCACUGAGUGCUGGAAUUCUCGGGUGCCAA`, “RBNS enrichment (R)” read 0.414.
`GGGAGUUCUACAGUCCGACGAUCACUGACAUGUUAACACCUGAUCACUCCCCCAGGCCCUUUUCCUGCCCCAUCCCUCCUAGGAAGAGAGAACUUUGCUGACGAUCUCACUACUUUUGAAGAAAAGAAGCCCUUGGAAUUCUCGGGUGCCAA` — result for “RBNS enrichment (R)”: 0.843.
Under “RBNS enrichment (R)”, `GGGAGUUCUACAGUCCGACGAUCGUCCAAGGCCAAGAACCUCAUCAAGGAGGCAGGCAACGAGUUUGUACAGCACAAUGCCAGACAGUUAUGCCGCGUGUAUCCCAGUGGUCUGAGGACAGAUUCAUCCAACUUGGAAUUCUCGGGUGCCAA` is recorded as 0.494.
Under “RBNS enrichment (R)”, `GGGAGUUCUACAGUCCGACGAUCGUUAUUGUAUUAAGUUUAUUCAGUUAAUUCACUUGAGGAACUAACCAGUUUUUACUUUCUGUCUAGAAUGAUGUACAUGUAGUAGAGUAAGCCAUAAUGCUCCCAAAGUGUGGAAUUCUCGGGUGCCAA` is recorded as 0.345.
`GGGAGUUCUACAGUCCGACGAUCACGUUUGCAGAAACUGCCCCUCCCCUCAUUGAGGGUCACUGCUCAAGAGUGCAGGAGUGGACUCUCCACUGAUGGGUCUCCCUCCCCAUCCUGGUUUCCACCCCGGGCUGUGGAAUUCUCGGGUGCCAA` — result for “RBNS enrichment (R)”: 0.54.
For `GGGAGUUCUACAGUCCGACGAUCGGGGGAGCUUUGGACACAGGACCAGUUUGGAAAAGGGUCAGGUAAGGGUUUCCACUCUGCACAUUGUAGAGGGAACACUCUGUAGGCCCAUGGGUCCCUUACUAGAGAGGUGGAAUUCUCGGGUGCCAA`, “RBNS enrichment (R)” read 3.16.
For `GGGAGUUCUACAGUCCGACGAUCCUGCUUUUGCUUUGGGUACAGCUAUUUAGUUAGUUGUGUUACAAAGAAUUAUUUUCUGAGAGAAUCUUAAACUUAGAAUAUUCAGAUGCAGUAGAUACUGGCGUGUGGAGUGGAAUUCUCGGGUGCCAA`, “RBNS enrichment (R)” read 0.476.
`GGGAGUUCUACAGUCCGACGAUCUCCAGACAUCUCUGCUAACAAGCCUUUGGUAAGUCACUUCAGAUACUUUUCCUCCUUUUUACAAAGAGAGGGCUGGCUUAGUUAUUUGCCAAAGCCCCUUCCAGGCCUGAUGGAAUUCUCGGGUGCCAA`: “RBNS enrichment (R)” 0.262.
For `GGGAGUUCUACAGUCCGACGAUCACCAUGAAAGUGUUACUCAGAAUUGUCAUAGAUUUUCUCUUCUUUGUGCAAAAACAUGGAAAAUUGUCACUGACUUUGUUUUGAGGUUUCCCCCAUUUUGCUGCCUUUUGUGGAAUUCUCGGGUGCCAA`, “RBNS enrichment (R)” read 0.422.
`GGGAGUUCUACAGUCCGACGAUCUAGUUGAAAGACUACACAAAAAGCCACAAUCAUUGCCCGGCCUCCUGAGUCACCUUCUAUCUAUACUUUGCUUAAAAGCUAUCCCAGAUACUCCCCCUUGAGGAGCUCAUUGGAAUUCUCGGGUGCCAA`: “RBNS enrichment (R)” 0.332.
For `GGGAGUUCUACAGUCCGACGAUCCAUGCCCUUUGGACCCAGUUCCCACCGAGGCCCCAGCAGAGUGGAGGGCACAACACUUUCAUUCAGCAAAAUCGUUUGUGUUCCAGUCACACUGUGGGCACCUCUUGCAUUGGAAUUCUCGGGUGCCAA`, “RBNS enrichment (R)” read 0.72.
For `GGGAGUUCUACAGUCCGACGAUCUUAUGAAACUUUAAAGUUCUUUAUAAAAUGCAGCAGUGGAAAACUGACUAACAAAUCGAAUGUAAAGUUGGGAAUGUUUGGUUCUGUGUAUGCAGACACAUGAGCUGUGGUGGAAUUCUCGGGUGCCAA`, “RBNS enrichment (R)” read 2.17.

Repeated from above (study 2):
It gave 6.83 for fold induction (PhoP, residues 12 14 15 18 19 TQCLL (Escherichia coli, UniProt P23836)).
For PhoP, residues 12 14 15 18 19 ICWRQ (Escherichia coli, UniProt P23836): fold induction read 11.2.
PhoP, residues 12 14 15 18 19 VHTVL (Escherichia coli, UniProt P23836) — fold induction: 2.44.
